Experimental data pooled from the literature.
Each line is one published result; not all experiments were run side by side. “And” joins repeats or separate records; there may be more than shown. ± marks the error that the study gave.
UniProt Q9NWZ3, sequence (whole entry, looked up): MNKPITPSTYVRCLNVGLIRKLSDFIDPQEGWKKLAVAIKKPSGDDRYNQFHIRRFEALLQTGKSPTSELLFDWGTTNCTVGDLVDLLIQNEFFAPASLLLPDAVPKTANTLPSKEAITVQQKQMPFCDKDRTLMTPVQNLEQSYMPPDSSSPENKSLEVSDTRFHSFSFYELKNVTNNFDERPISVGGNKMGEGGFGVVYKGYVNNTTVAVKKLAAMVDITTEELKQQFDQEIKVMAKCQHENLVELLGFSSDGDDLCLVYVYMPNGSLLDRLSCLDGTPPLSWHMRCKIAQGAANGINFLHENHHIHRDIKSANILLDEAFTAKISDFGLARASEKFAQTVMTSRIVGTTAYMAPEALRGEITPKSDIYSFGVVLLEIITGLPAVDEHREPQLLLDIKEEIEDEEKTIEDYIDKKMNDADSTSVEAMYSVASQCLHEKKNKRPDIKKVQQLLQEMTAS
UniProt Q9HC98, sequence (whole entry, looked up): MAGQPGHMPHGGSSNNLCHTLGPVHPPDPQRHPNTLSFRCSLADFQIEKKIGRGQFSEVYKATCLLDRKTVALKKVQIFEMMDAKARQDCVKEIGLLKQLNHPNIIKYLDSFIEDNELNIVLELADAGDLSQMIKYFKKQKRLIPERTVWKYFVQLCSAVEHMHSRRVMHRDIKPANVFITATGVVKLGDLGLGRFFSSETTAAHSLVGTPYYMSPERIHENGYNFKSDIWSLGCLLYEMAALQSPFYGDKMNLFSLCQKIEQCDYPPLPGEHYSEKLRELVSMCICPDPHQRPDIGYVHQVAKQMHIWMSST
UniProt Q96RR4, sequence (whole entry, looked up): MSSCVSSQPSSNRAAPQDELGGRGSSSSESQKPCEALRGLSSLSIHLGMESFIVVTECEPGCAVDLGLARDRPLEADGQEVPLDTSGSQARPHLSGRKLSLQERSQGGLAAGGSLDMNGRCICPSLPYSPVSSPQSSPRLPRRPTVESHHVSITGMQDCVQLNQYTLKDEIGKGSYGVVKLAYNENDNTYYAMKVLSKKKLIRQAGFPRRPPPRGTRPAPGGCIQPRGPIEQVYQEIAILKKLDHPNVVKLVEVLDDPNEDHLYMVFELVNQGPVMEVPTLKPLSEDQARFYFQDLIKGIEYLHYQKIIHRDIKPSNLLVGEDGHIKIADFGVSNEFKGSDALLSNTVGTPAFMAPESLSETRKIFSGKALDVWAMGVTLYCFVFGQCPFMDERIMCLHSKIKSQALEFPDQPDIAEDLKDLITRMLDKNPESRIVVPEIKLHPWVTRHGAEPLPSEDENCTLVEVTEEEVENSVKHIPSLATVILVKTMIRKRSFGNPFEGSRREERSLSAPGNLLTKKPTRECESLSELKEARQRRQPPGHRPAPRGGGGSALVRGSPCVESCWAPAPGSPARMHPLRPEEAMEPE

Compound | tested on | assay | system | setting | how to read | quantity | result
CCOC(=O)C1(Cc2cc(OC)cc(OC)c2)Oc2cc(F)ccc2N(Cc2cc(OC)cc(OC)c2)C1=O (stereo not shown) | Arabidopsis thaliana | stem length, petri dish germination | Col-0, 1/2 MS medium | 200 µg/mL, 7 days, 22 °C, dark | – | inhibition | 45.9%
CC(C)CC(C(=O)N1CC2(CC1C#N)C(=O)Nc1ccccc12)N(C)C(=O)c1cc2c(F)cc(F)c(F)c2[nH]1 (stereo not shown) | Human coronavirus 229E | cytopathic effect | MRC5 | 13.54 nM | – | inhibition | 100%
O=C1NC2(CC2)COc2ncc(F)cc2[C@H]2COCCN2c2ccn3ncc1c3n2 | – | – | Sprague-Dawley rat, female, serum | oral, 2.5 mg/kg/day, end of treatment, 4-week subacute toxicity | – | serum urea | 6.1 ± 1.03 mmol/L
Fc1cccc(COc2ccc(Nc3ncnc4ccc(-c5ccc(CN6CCCCC6)cc5)cc34)cc2Cl)c1 | Plasmodium falciparum | parasite growth, SYBR Green | D6 | blood stage | – | EC50 | 68 nM
COc1ccccc1-c1n[nH]c2nc(NC3CCN(C(=O)Cc4ccc(F)cc4F)CC3)ncc12 | – | bead binding, competition bead pull-down, item: LINJ.32.3470 | Leishmania donovani axenic amastigote extract | 10 µM | baseline: vehicle | relative abundance | 0.78
CC(C)(C)C(=O)OCOP(=O)(OCOC(=O)C(C)(C)C)C1CCCN(O)C1=O (stereo not shown) | BT-549 | – | – | – | – | GI50 | 313 nM
CC(C)C[C@@H]1NC(=O)[C@@H](Cc2c[nH]c3ccccc23)NC(=O)[C@H](CCCNC(=N)N)NC(=O)[C@@H](CCC(=O)O)NC(=O)[C@H](CCC(N)=O)NC(=O)[C@@H](CCC(=O)O)NC(=O)[C@H](CCCNC(=N)N)NC(=O)[C@@H](Cc2c[nH]c3ccccc23)NC1=O | – | Luminex, item: TNFa | LDLr-/- mice, Western diet, liver | dose not given, 4 weeks | – | cytokine level | 77 ± 21 pg/g tissue
CC1CCC2C(C)C(CCCOC(=O)C(Cc3ccc(N(CCCl)CCCl)cc3)NC(=O)OC(C)(C)C)OC3OC4(C)CCC1C32OO4 (stereo not shown) | IOSE-144 | cell growth or viability, CCK-8 | – | – | – | IC50 | 15.2 µM
CN(C)[C@H]1C[C@@]23CC[C@@]4(O2)C(=CC[C@]2(C)[C@@H](c5ccc6ccncc6c5)CC[C@H]24)C=C3[C@@H](O)[C@@H]1O | CAMKK2 (Homo sapiens, UniProt Q96RR4) | ATP probe labelling, inhibitor, KiNativ profiling | – | 0.1 µM | – | inhibition | -4.3%
COc1ccccc1-c1ccncc1C(=O)Nc1nnc(OCc2ccc(Cl)cc2)s1 | RPE-1 TP53-/- BRCA1-/- | – | – | 0.06 µM, average of 2 runs | baseline: untreated | colony survival | 67.3%
COc1ccccc1-c1n[nH]c2nc(N[C@H]3CC[C@H](NS(=O)(=O)CC(C)C)CC3)ncc12 | – | bead binding, competition bead pull-down, item: LINJ.30.1580 | Leishmania donovani extract | 10 µM | baseline: vehicle | relative abundance | 0.11
Cc1cc(Oc2nc(N3CC[C@@H](c4ccncc4)C3)ncc2F)[nH]n1 | Mycobacterium tuberculosis | OD | H37Rv PurF CRISPRi knockdown | 0.007813 µM, with: anhydrotetracycline low | – | normalised growth | 44% and 40% and 39%
CC[C@H](C)[C@H](NC(=O)[C@H](CO)NC(=O)[C@H](Cc1ccc(O)cc1)NC(=O)[C@H](Cc1ccc(O)cc1)NC(=O)[C@H](CC(N)=O)NC(=O)CNC(=O)[C@H](CO)NC(=O)[C@H](Cc1ccc(O)cc1)NC(=O)[C@H](CO)NC(=O)[C@H](CO)NC(=O)[C@H](CC(N)=O)NC(=O)COCCOCCNC(=O)CN1CCN(CC(=O)O)CCN(CC(=O)O)CCN(CC(=O)O)CC1)C(=O)N[C@@H](CC(C)C)C(N)=O [copper-64 labelled] | – | dynamic PET | mouse, tamoxifen-induced PDAC, tumor | intravenous, 0.1 µg/mouse, 7.5 min | – | tumour uptake | 12 %ID/mL
O=C1NC(=O)c2c1c1cc(F)c[n+]3c1c1c2c2cc(O)ccc2[n]1[Ru-4]312([N]=C=S)[S+]3CC[S+]1CC[S+]2CC3 (stereo not shown) | NEK6 (Homo sapiens, UniProt Q9HC98) | enzyme activity | – | 100 nM, human enzyme, with: 10 µM ATP | baseline: untreated | remaining activity | 57%
CC(C)[C@H]1NC(=O)C[C@H]2/C=C/CCSSC[C@@H](NC1=O)C(=O)N[C@H](Cc1cccc3ccccc13)C(=O)NCC(=O)O2 | IRAK4 (Homo sapiens, UniProt Q9NWZ3) | enzyme activity, inhibitor | – | 10 µM | – | inhibition | 5.4%
Cc1cc(C(=O)Nc2nc3cccc(C)c3n2[C@H]2CCCCN(C(=O)/C=C/CN(C)C)C2)ccn1 | Trypanosoma brucei brucei | – | 2T1 wild type | 0.00013 µM | – | survival | 102% and 107% and 91.5% and 103% and 94.3%

For quick reference, copied from above:
Compound | tested on | assay | system | setting | how to read | quantity | result
Fc1cccc(COc2ccc(Nc3ncnc4ccc(-c5ccc(CN6CCCCC6)cc5)cc34)cc2Cl)c1 | Plasmodium falciparum | parasite growth, SYBR Green | D6 | blood stage | – | EC50 | 68 nM
